Measurements of several laboratories.
Parts stem from different laboratories: compare values within a part only. Changes are numbered by the printed parent chain.

Block 1
Target: ABI1, truncated, D143A, DHFR fusion (Arabidopsis thaliana)
Method: DHFR PCA, deep sequencing
Medium: yeast
Notes: methotrexate growth selection, single substitutions
With: (+)-ABA 2500 µM
Reference: wild-type fitted maximum
Reading: higher = stronger binding
Starting sequence: PYL1, truncated, DHFR fusion (Arabidopsis thaliana); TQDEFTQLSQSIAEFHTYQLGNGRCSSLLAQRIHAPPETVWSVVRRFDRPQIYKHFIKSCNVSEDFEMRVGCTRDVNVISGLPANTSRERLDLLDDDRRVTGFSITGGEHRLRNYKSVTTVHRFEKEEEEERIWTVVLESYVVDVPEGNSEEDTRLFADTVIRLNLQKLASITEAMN; partner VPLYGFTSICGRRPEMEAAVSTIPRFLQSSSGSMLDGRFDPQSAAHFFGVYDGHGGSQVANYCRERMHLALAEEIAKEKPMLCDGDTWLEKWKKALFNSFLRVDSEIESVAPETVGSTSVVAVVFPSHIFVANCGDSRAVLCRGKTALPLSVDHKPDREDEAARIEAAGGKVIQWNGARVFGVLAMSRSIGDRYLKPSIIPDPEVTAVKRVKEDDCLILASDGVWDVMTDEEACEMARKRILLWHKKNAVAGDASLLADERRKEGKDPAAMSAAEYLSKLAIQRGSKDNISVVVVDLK
Variant	relative binding score
N149M	65%
S9H	109%
F103T	52%
S42Q	109%
Y115G	6.34%
L138P	-10%
E147A	97.2%
Y115M	92.6%
R69A	92.2%
L91I	78.9%
E14V	89.3%
E109C	94.8%

Block 2
Target: RING finger protein unkempt homolog, zinc fingers 1-6, GST-SBP tag (UNK, Homo sapiens, UniProt Q9C0B0, residues 30-357)
Method: RNA Bind-n-Seq
Molecule type: RNA
Medium: in vitro
Concentration: not given
Notes: RNA with constant flanks, human-mouse chimeric sites, ends assumed
Reference: input RNA pool
Reading: higher = stronger binding
Constant ends, left off below: GGGAGUUCUACAGUCCGACGAUC … CAACAGAGGAUUGAGCAUCA
Target sequence (chain): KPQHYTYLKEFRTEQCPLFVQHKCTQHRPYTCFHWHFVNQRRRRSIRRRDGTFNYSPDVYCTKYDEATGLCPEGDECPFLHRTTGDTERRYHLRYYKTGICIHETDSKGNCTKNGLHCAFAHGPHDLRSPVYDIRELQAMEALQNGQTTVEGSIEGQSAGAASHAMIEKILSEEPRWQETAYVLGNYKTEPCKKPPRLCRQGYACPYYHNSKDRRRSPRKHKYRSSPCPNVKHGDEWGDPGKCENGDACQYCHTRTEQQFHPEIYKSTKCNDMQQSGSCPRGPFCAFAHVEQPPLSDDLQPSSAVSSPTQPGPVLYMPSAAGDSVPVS
Sequence	bound/input enrichment [ratio]
CAGGGCAUUAUUUCUCGUGCUGUUAGACACCUGUUCAAGAGUAUUGAUGAGAAAAAGCACAUAGCAAUUAAAAACGGGCUGCCCCCUCCUGAAUUCAAAGUGAAUGCCCAGUUCCUAGAG	1.07
UGACAAGGGCACUGCAGAGCCAUGCCUUUCCUUGACAUACAGAAAAAGUUCGGCCUUAGCCUGGACCGGCACUUUAUAAUCCAGAGUGCAGAACAGCCCUAUAAGAACGCCGCUCGGUGC	0.0743
UCUUAACUUAUUCAUUUAACUUAUUUUUAUAGCUAGAGCAAUAUUGUUAGUCUUAGACAAUAGCUCACAUUUUUUGAGAAGCAUGCCCUCCCUGUCCAUUUGUCUUACAAUAACACUCAG	96
UGACAAGGGCACUGCAGGGCCAUGCCUUUCCUUGACAUACAGAAAAAGUUCGGCCUUAGCCUGGACCGGCACUUUAUGUUCCUAAGCGCAGAACAGCCCUAUAAGAACGCCGCUCGGUGC	0.0659
AUGGAAAAGGAUUCUCUGCCCCGCUUUGUGCGCUCUGAAUUUUAUAAGGAGCUAAUCAAGUAGUCAUUUAGCCAGGCUUCCAAAAGUUGCCCUGUGAGUUGAGUUACAUCCUUUGUAGCA	1.01
GAUAAGAAAAGCUUGUUGGAGACCCGCUUGCAUGUCACUGGUAGAGACCUGAGGUGUCAAAUAGCUGAAACUUUCGGACUUCAAGAAAAUUACAUCAAGAUCGUAAUAAAUAAGAAACAG	0.373
AACAGAUUGUCUUUAAGCAUUCCAAGCAAUGCUUGGGGGGUGAUCAUAAUUACCCACGUGCCUUCUGACUGAGCUUUAAUGCUGUUCCAUGUUACAUCUUUCCUUCACUCCAGAAUUGUU	0.145
AGAGAUAAGACAUCCAGGAACAUGCGAGGCUCCCGGAUGAAUGGACUGCCUAGCCCCACUCAUAGUGCCCACUGUAGCUUCUACCGAACCAGAACCUUGCAGGCACUGAGUAAUGAGAAG	0.129

Block 3
Target: Hepatocyte nuclear factor 3-alpha (Foxa1, Mus musculus, UniProt P35582, residues 1-468, full length assumed)
Method: EMSA with sequencing
Molecule type: double-stranded DNA, one strand shown
Medium: in vitro
Concentration: 10 and 20 nM
Notes: whole designed probe, mean of two concentrations, ends assumed
Reference: negative control set to 0
Reading: higher = stronger binding
Constant ends, left off below: GTGAGCGGTGCCCATTGATGGGGAAC … TTTCACTGGGATCGTGGGGAC
Target sequence (chain): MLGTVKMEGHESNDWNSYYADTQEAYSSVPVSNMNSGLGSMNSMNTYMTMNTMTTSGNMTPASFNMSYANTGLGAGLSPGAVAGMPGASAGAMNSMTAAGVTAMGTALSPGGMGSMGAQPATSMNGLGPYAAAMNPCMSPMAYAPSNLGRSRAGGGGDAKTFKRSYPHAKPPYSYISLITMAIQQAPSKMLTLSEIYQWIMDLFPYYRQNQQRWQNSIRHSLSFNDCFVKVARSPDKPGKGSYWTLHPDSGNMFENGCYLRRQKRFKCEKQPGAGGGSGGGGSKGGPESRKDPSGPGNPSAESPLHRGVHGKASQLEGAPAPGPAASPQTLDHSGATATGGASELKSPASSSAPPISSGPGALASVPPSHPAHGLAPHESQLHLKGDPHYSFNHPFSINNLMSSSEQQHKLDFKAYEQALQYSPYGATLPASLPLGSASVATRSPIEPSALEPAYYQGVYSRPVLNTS
Sequence	normalised bound fraction [ratio]
AGTCATTCTGATATTCACATTTCTTGTCTTACGGGATTAAAAATCCAGGTAAAGCCTAACATCAGACATAACATGTGTATTTCACCATTTTACATGTTTACTTTTTGAAATATCTTAAAATAAGCCTAATTTGGATAAAAGTAGGTAATTTAGGACTGGGGTCCAGTAAGGAAATATTACCTCTAGTGCTTCC	0.259
CCACACTGGACAATACTGCATTGTACACCTAAAATTCCATTAAGAGGGTAGATCTCATGTAAAGTATTTACAACACAAGAAAATTTTTTAAAGAGATTACATATTTAATAAATACTTTTTTCTATTTCTTAGCATACAGCACCAATGTAATTTAATATTAATTATAGCATCCACAGTTAAATTTCTCAATATT	0.00346
TTACCACCTCCACCTCTGCTACTTTCTGCTCTAGAAACTACTTTAATGAAAAGAGAAAAAGCTAGTTGACTAGCATGTTGATTTTATGCCCAATGCAAATACAGACCAACTGACTCATCCTGAAAATATTTAGCAGGGAGAAAAAAAAAAAGAAGAAAATTTTTTTTAGTGAGTAGCCCACATTATGATACTT	0.315
GCGACGGCGCCCAATGAGCGGCCAGGATGTTGGAGCGCCGGCGGCGGTCCGGGCGCTCGCTGGCTGAGGGACGGCGGCCGCCGCCATGATGCTTGTTTGCTTTCAATGAAAACGAGGGGGGCGCGGAGGAGGAGGCGGCGGCGTCGGTGGCGGCGGCGACGGCGGCGCGGAGGCGAAGGCAGCGGCGGGCGCA	0.152
ATCTAGTTCCAGTCTTAGCTTGGCAATTTCTTCCCGCAACATGCTGTTTTCACGCAAGAGATCTTCTTCTTTCTTATGACTAAGAGAAAGCTAAGTAAACAAAGGGAACTTTTAGTTAGCACTCAATAGAATGACATATCATGATTTCTTCTAAAATCAAAGAATGACATTTATATTTGTATAATGAAATAAT	0.51

Block 4
Target: CCNE1, cyclin fold, Cln2 fusion (human)
Method: yeast growth competition, sequencing
Medium: yeast
Notes: weak parent motif
Reference: not given
Reading: higher = stronger binding
Starting sequence: SGO1 docking peptide (human); PLAKRALKYTDEK
Variant	normalised enrichment score
PLAKRALAYTDEK [K8A]	0.52
PLAKRALKATDEK [Y9A]	-0.0242
PLAKRALKYTDAK [E12A]	0.285
PLAKRALKYTAEK [D11A]	-0.00444
PLAKRALKYADEK [T10A]	0.598

Block 5
Target: Histone acetyltransferase KAT6A, both winged helices, GST fusion (KAT6A, Homo sapiens, UniProt Q92794, residues 1-181)
Method: protein binding microarray
Molecule type: double-stranded DNA, one strand shown
Medium: in vitro
Concentration: not given
Notes: 8-mer, flanks averaged, mean of 2 arrays, mostly near background
Reference: not given
Reading: higher = stronger binding
Target sequence (chain): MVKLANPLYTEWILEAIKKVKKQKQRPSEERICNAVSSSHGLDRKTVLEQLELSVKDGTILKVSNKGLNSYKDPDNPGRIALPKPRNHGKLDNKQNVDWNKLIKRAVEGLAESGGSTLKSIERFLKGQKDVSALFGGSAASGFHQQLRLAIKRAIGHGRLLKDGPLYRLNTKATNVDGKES
Sequence	E-score
AGGCTCAC	-0.0191
CTAGGAGC	-0.0941
TCGCCGAA	0.196
CCATCTAG	-0.312
GAGTCATC	-0.0993
AAGTTAGT	-0.0364
CGCGTCGA	0.293
ACCACAAT	-0.182
GAACAGCA	-0.0766
AACATCAA	0.0241
ACCCGTCA	0.214
CTACGTCA	-0.0335
CGTGTCTC	0.0179
AATAATCT	-0.158
GTCGTAAC	-0.109
AGGTTTAA	-0.0828
CATTGATC	-0.131
TACCACCA	-0.195
CAAGCTTC	-0.0411
ATACCCCA	-0.183
CACATCAA	-0.0608

Repeated from above (block 5):
Sequence	E-score
GAACAGCA	-0.0766
AACATCAA	0.0241
ACCCGTCA	0.214
CTACGTCA	-0.0335
CGTGTCTC	0.0179
